Published values gathered from unrelated publications.
Compare with care: the assays were run in different laboratories.
Organism: Escherichia coli

For `Nc1nc2ccc(Oc3ccc4nc(N)sc4c3)cc2s1`, the MIC was 32 to 64 µg/mL (microbial growth, broth dilution; DC2; 20 h).
For `CC[C@H](C)[C@H](NC(=O)[C@H](CC(C)C)NC(=O)[C@H](CC(=O)O)NC(=O)[C@H](CO)NC(=O)[C@H](CCCNC(=N)N)NC(=O)[C@@H](N)CO)C(=O)N[C@H](C(=O)N[C@@H](Cc1c[nH]cn1)C(=O)N[C@@H](CCC(N)=O)C(=O)N[C@@H](CCCNC(=N)N)C(=O)N[C@@H](CC(C)C)C(=O)N[C@@H](Cc1ccccc1)C(N)=O)C(C)C`, the MIC was over 400 µg/mL (broth microdilution; Mueller Hinton broth).
`CCCO[C@H]1[C@H](O)[C@@H](N)[C@@H](O[C@H]2[C@H](O[C@@H]3O[C@H](CO)[C@@H](O[C@H]4O[C@@H](CN)[C@@H](O)[C@H](O)[C@H]4N)[C@H]3O)[C@@H](O)[C@H](N)C[C@@H]2N)O[C@@H]1CO` has an MIC of 16 to 32 µg/mL (broth microdilution; clinical isolate AG 002).
With `CCCCCCCCCCCCCC[S+]([O-])CC1OC(OC2C(N)CC(N)C(OC3OC(CN)C(O)CC3N)C2O)C(O)C(N)C1O` (mixture of isomers) the MIC was 37.5 µg/mL (BL21(DE3)).
For `CC(C)C[C@@H]1NC(=O)[C@H](C)NC(=O)[C@H](NC(=O)[C@H](CO)NC(=O)[C@@H](CCCCN)NC(=O)[C@@H](CC(C)C)NC(=O)[C@@H](N)Cc2ccccc2)[C@H](C(N)=O)OC(=O)[C@H](C)NC1=O`, the MIC was over 32 µg/mL (ATCC 10798; TFA salt).
For `CC(C)C[C@H](NC(=O)[C@H](CC(C)C)NC(=O)[C@H](CCCCN)NC(=O)[C@@H]1CCCN1C(=O)[C@H](CC(C)C)NC(=O)[C@H](CC(C)C)NC(=O)[C@H](CCCCN)NC(=O)[C@H](CC(C)C)NC(=O)[C@H](CC(C)C)NC(=O)[C@H](CO)NC(=O)CNC(=O)[C@H](Cc1ccccc1)NC(=O)[C@@H](N)Cc1ccccc1)C(N)=O`, the MIC was 12.5 µM (broth microdilution; K12).
The MIC of `CC[C@H](C)[C@H](NC(=O)[C@@H]1CCCN1C(=O)[C@H](CCCNC(=N)N)NC(=O)[C@@H]1CCCN1C(=O)[C@H](Cc1c[nH]cn1)NC(=O)[C@H](CO)NC(=O)[C@@H](NC(=O)[C@@H]1CCCN1C(=O)[C@H](CCCNC(=N)N)NC(=O)[C@@H]1CCCN1C(=O)[C@H](CO)NC(=O)[C@H](Cc1ccc(O)cc1)NC(=O)[C@@H]1CCCN1C(=O)[C@H](CCCNC(=N)N)NC(=O)[C@@H]1CCCN1C(=O)[C@H](CCCCN)NC(=O)CN)[C@@H](C)O)C(=O)N[C@@H](CCCNC(=N)N)C(=O)N[C@H](C(=O)O)C(C)C` is reported as 2 µg/mL (BL21(DE3) untransformed, cation-adjusted Mueller-Hinton broth; 37 °C, 25% broth).
`CCCCCCSCC1OC(OC2C(N)CC(N)C(OC3OC(CN)C(O)CC3N)C2O)C(O)C(N)C1O` (stereo not drawn) has an MIC of over 150 µg/mL (BL21(DE3) AAC(6')/APH(2'')).
`CC[C@H](C)[C@H](NC(=O)[C@@H](Cc1ccccc1)NC)C(=O)N[C@@H](CO)C(=O)N[C@H](CCCNC(=N)N)C(=O)N[C@@H](C(=O)N[C@H](C(=O)N[C@@H](CO)C(=O)N[C@H]1C(=O)N[C@@H](C)C(=O)N[C@@H](C2CCCCC2)C(=O)N[C@@H]([C@@H](C)CC)C(=O)O[C@H]1C)[C@@H](C)CC)[C@@H](C)CC` gave an MIC of over 8 µg/mL (broth microdilution; ATCC 10798, Mueller-Hinton broth; 16 h, 37 °C).
With `CC[C@H](C)[C@H](NC(=O)[C@H](CCCNC(=N)N)NC(=O)[C@H](Cc1ccccc1)NC(=O)[C@H](CC(C)C)NC(=O)[C@H](CCCCN)NC(=O)[C@H](CO)NC(=O)[C@@H](NC(=O)[C@H](CC(C)C)NC(=O)[C@H](CCCCN)NC(=O)[C@H](C)NC(=O)[C@H](CC(N)=O)NC(=O)[C@H](CCCNC(=N)N)NC(=O)[C@H](Cc1ccc(O)cc1)NC(=O)[C@H](C)NC(=O)[C@@H](NC(=O)[C@H](CCCCN)NC(=O)[C@H](CC(N)=O)NC(=O)[C@H](CCCCN)NC(=O)[C@H](CC(C)C)NC(=O)[C@H](CO)NC(=O)[C@H](CC(C)C)NC(=O)[C@H](C)NC(=O)[C@H](C)NC(=O)[C@H](CO)NC(=O)[C@@H](NC(=O)[C@@H](NC(=O)[C@H](Cc1c[nH]c2ccccc12)NC(=O)[C@@H](NC(=O)[C@H](CO)NC(=O)[C@@H](NC(=O)[C@@H](N)CC(C)C)C(C)C)C(C)C)[C@@H](C)CC)[C@@H](C)CC)C(C)C)C(C)C)C(=O)N[C@@H](C)C(=O)N[C@@H](CC(C)C)C(=O)O` the MIC was 2 µg/mL (broth microdilution; ATCC 25922; 24 h, 37 °C).
For `Cc1cc(N)c2cc(NC(=O)c3ccc4c(-c5cccc(N)c5)cccc4c3)ccc2n1`, the MIC was over 200 µM (BW25113 wild type).
The MIC of `CC[C@H](C)[C@H](NC(=O)[C@H](CCCCN)NC(=O)[C@H](CC(N)=O)NC(=O)[C@H](Cc1c[nH]c2ccccc12)NC(=O)[C@H](Cc1ccccc1)NC(=O)[C@H](CCCCN)NC(=O)[C@H](CCCCNC(=N)N)NC(=O)[C@H](CC(C)C)NC(=O)[C@H](Cc1c[nH]c2ccccc12)NC(=O)[C@H](CCCCN)NC(=O)[C@H](CCCCNC(=N)N)NC(=O)[C@H](CC(C)C)NC(=O)CNC(C)=O)C(=O)N[C@@H](CCCCN)C(=O)N[C@@H](CCCCNC(=N)N)C(N)=O` is reported as 3.12 µM (broth microdilution; ATCC 25922).
`CC[C@H](C)[C@H](NC(=O)[C@H](CCCNC(=N)N)NC(=O)[C@H](CCCNC(=N)N)NC(=O)[C@H](CCCCN)NC(=O)[C@H](CC(N)=O)NC(=O)[C@H](CS)NC(=O)[C@H](Cc1ccc(O)cc1)NC(=O)CNC(=O)CNC(=O)[C@H](CCCNC(=N)N)NC(=O)[C@H](CCCCN)NC(=O)[C@H](CCCNC(=N)N)NC(=O)[C@H](CCCCN)NC(=O)[C@H](CC(C)C)NC(=O)[C@H](CC(C)C)NC(=O)[C@H](CS)NC(=O)[C@H](Cc1c[nH]cn1)NC(=O)[C@H](C)NC(=O)[C@H](C)NC(=O)[C@H](CS)NC(=O)[C@H](C)NC(=O)[C@H](C)NC(=O)[C@H](Cc1c[nH]cn1)NC(=O)[C@H](CC(N)=O)NC(=O)[C@@H](NC(=O)[C@H](CCCCN)NC(=O)[C@@H](NC(=O)CNC(=O)[C@H](CCCCN)NC(=O)[C@H](C)NC(=O)[C@H](CCC(=O)O)NC(=O)[C@H](C)NC(=O)[C@H](CO)NC(=O)[C@H](CC(C)C)NC(=O)[C@H](CC(C)C)NC(=O)[C@H](CC(=O)O)NC(=O)[C@H](CS)NC(=O)[C@@H](NC(=O)[C@@H](N)C(C)C)[C@@H](C)O)C(C)C)C(C)C)C(=O)N[C@@H](CS)C(=O)N[C@H](C(=O)N[C@@H](CS)C(=O)N[C@@H](CCCNC(=N)N)C(=O)N[C@@H](CC(N)=O)C(N)=O)C(C)C` gave an MIC of over 75 µg/mL (DH5α).
The MIC of `c1ccc(CCNC2CCCc3c2[nH]c2ccc(C4CCCCC4)cc32)cc1` (stereo not drawn) is reported as over 41 µg/mL (microbial growth, broth dilution; ATCC11775).
For `CC[C@H](C)[C@H](NC(=O)[C@H](CCCNC(=N)N)NC(=O)[C@@H](N)CCCNC(=N)N)C(=O)N[C@@H](CCCNC(=N)N)C(=O)N1CCC[C@H]1C(=O)N[C@@H](CCCNC(=N)N)C(=O)N1CCC[C@H]1C(=O)N1CCC[C@H]1C(=O)N[C@@H](CCCNC(=N)N)C(=O)N[C@@H](CC(C)C)C(=O)N1CCC[C@H]1C(=O)N[C@@H](CCCNC(=N)N)C(=O)N1CCC[C@H]1C(=O)N[C@@H](CCCNC(=N)N)C(=O)N1CCC[C@H]1C(=O)N[C@@H](CCCNC(=N)N)C(=O)N1CCC[C@H]1C(=O)N[C@@H](CC(C)C)C(=O)N1CCC[C@H]1C(=O)N[C@@H](Cc1ccccc1)C(=O)N1CCC[C@H]1C(=O)N[C@@H](CCCNC(=N)N)C(=O)N1CCC[C@H]1C(=O)NCC(=O)N1CCC[C@H]1C(=O)N[C@@H](CCCNC(=N)N)C(=O)N1CCC[C@H]1C(=O)N[C@H](C(=O)N1CCC[C@H]1C(=O)N[C@@H](CCCNC(=N)N)C(=O)N1CCC[C@H]1C(=O)N[C@@H](CC(C)C)C(=O)N1CCC[C@H]1C(=O)N[C@@H](Cc1ccccc1)C(=O)N1CCC[C@H]1C(=O)O)[C@@H](C)CC`, the MIC was 2.8 µM (broth microdilution; BW25113 wild type, Mueller-Hinton broth; overnight, 37 °C).
With `O=C(NC12CC3CC(CC(C3)C1)C2)c1cc2cc(Cl)ccc2[nH]1` the MIC was over 64 µM (broth microdilution; 3).
`CC1(C)OC2OC(C(CCO)NCCCNC(CCO)C3OC4OC(C)(C)OC4C3OCc3ccccc3)C(OCc3ccccc3)C2O1` (stereo not drawn) has an MIC of 54 µg/mL (microbial growth, broth dilution; 20 h).
`CC[C@@H](C)[C@H](NC(=O)[C@H](C)NC(=O)[C@H](CCCCN)NC(=O)[C@H](CC(C)C)NC(=O)[C@H](C)NC(=O)[C@@H](NC(=O)[C@H](Cc1c[nH]cn1)NC(=O)[C@H](CC(C)C)NC(=O)[C@@H](NC(=O)[C@@H](NC(=O)[C@H](CCCCN)NC(=O)[C@H](CCCCN)NC(=O)[C@H](C)NC(=O)[C@H](CO)NC(=O)[C@H](CCCCN)NC(=O)[C@H](Cc1ccccc1)NC(=O)[C@@H](NC(=O)[C@H](CCCCN)NC(=O)[C@H](CC(C)C)NC(=O)[C@H](Cc1ccccc1)NC(=O)[C@H](CO)NC(=O)[C@H](CCCCN)NC(=O)[C@H](Cc1c[nH]c2ccccc12)NC(=O)[C@H](CCCCN)NC(C)=O)[C@@H](C)O)[C@@H](C)O)C(C)C)[C@@H](C)O)C(=O)N[C@@H](CO)C(=O)N[C@@H](CO)C(N)=O` has an MIC of 8 µg/mL (broth dilution; ATCC 25922, Mueller-Hinton broth; 24 h, 37 °C).
With `C/C(=N/NC(=N)N)c1nnn(-c2ccc(C#CC(C)(C)O)cc2)c1C` the MIC was 64 µg/mL (broth microdilution; JW55031 tolC mutant).
With `COc1ccc(CCNc2cc(-c3ccccc3)nc3ncnn23)cc1` the MIC was over 64 µM (broth microdilution; 3).
`CC[C@H](C)[C@H](NC(=O)[C@H](CO)NC(=O)[C@H](CO)NC(=O)[C@H](Cc1ccccc1)NC(=O)CN)C(=O)N[C@@H](Cc1ccccc1)C(=O)N[C@@H](CCCNC(=N)N)C(=O)NCC(=O)N[C@H](C(=O)N[C@@H](C)C(=O)N[C@@H](CCCCN)C(=O)N[C@@H](Cc1ccccc1)C(=O)N[C@@H](C)C(=O)N[C@@H](CO)C(=O)N[C@@H](CCCCN)C(=O)NCC(=O)N[C@@H](CC(C)C)C(=O)NCC(=O)N[C@@H](CCCCN)C(N)=O)C(C)C` gave an MIC of over 128 µM (ATCC 8739; pretreated trypsin 1 mg/mL).

Repeated from above:
`CCCCCCSCC1OC(OC2C(N)CC(N)C(OC3OC(CN)C(O)CC3N)C2O)C(O)C(N)C1O` (stereo not drawn) has an MIC of over 150 µg/mL (BL21(DE3) AAC(6')/APH(2'')).
For `CC(C)C[C@H](NC(=O)[C@H](CC(C)C)NC(=O)[C@H](CCCCN)NC(=O)[C@@H]1CCCN1C(=O)[C@H](CC(C)C)NC(=O)[C@H](CC(C)C)NC(=O)[C@H](CCCCN)NC(=O)[C@H](CC(C)C)NC(=O)[C@H](CC(C)C)NC(=O)[C@H](CO)NC(=O)CNC(=O)[C@H](Cc1ccccc1)NC(=O)[C@@H](N)Cc1ccccc1)C(N)=O`, the MIC was 12.5 µM (broth microdilution; K12).
